# Published values pooled from the literature.
# Numbered parts are unrelated; each lists some results of a single study. Substitutions count along the parent as printed.

# Study 1 — method: protein-binding microarray; form: double-stranded DNA, one strand shown; sample: in vitro; tested at: 2200 nM top; notes: 60-bp whole probe; together with: salmon DNA 0.4 mg/ml; reference: random background probes; direction: higher = stronger binding; shared flanks, not repeated: GCCTAGCAC … GTCTTGATTCGCTTGACGCTGCTG
# Target: Interferon regulatory factor 7, full length, phosphomimetic (IRF7, Homo sapiens, UniProt Q92985, residues 1-503, S471D/S472D/S475D/S476D/S477D/S483D/S484D/S487D)
# Construct (chain): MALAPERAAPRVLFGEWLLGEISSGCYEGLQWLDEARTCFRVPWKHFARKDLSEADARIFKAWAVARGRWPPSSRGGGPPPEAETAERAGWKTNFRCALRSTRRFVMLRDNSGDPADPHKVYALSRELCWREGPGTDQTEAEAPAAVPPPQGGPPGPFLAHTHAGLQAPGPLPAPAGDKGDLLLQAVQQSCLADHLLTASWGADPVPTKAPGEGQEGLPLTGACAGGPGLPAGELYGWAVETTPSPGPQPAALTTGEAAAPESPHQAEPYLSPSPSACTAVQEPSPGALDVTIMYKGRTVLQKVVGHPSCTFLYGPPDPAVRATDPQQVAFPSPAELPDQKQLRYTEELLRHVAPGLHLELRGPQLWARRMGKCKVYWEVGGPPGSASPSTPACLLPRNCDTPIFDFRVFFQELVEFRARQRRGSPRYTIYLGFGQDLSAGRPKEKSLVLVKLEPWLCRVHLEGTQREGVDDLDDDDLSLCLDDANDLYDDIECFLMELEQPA
Sequence,fitted relative affinity [z-score]
TTAGGTTTCGGTTTCGGTTAGTGCTAG,16.6
TCAGATTTCAATTAAAAACTGTGCTAG,-0.166
TACGATTTCAGTCTCGAGACGTGCTAG,1.11
TCATTTTTTTTTTACTTACTGTGCTAG,2.38
TTAGGTTTCGGGTATCGGTAAGTGCTA,5.98
GACGATAGCGGGTTTCGAGACGTGCTA,0.916
TTAGGACTGCTACTGTTTTAGTGCTAG,0.39
AACGGTTTCGGTATCGGGACGTGCTAG,8.24
GACGGTTTCGGGATTCGGGACGTGCTA,5.89
TATGGTTTTTTTTTAATTGAGTGCTAG,1.1
GCCGGTCTCCTTATCCTGACGTGCTAG,0.908
TTAGGTATCCTTATCCTTTGGTGCTAG,0.506
GACGGTCTCCTACGGCTGACGTGCTAG,-0.176
TTAGAACTGGGGTTTCGATAAGTGCTA,0.756
GACGGTTCCGGTTACGGGACGTGCTAG,1.07

# Study 2 — target: CCND1, cyclin fold, Cln2 fusion (human); method: yeast growth competition, sequencing; sample: yeast; notes: weak parent motif; reference: not given; direction: higher = stronger binding
# Starting sequence: CDKN1B docking peptide (human); PSACRNLFGPVDH; partner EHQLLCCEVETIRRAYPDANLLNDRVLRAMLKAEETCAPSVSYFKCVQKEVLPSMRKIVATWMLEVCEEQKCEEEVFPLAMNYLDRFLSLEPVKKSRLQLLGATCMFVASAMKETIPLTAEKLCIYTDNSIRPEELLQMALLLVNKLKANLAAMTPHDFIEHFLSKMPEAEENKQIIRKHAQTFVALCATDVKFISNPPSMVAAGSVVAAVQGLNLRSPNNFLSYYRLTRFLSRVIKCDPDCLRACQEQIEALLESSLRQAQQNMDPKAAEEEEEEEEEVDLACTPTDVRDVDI
Change,normalised enrichment score
P1M,0.705
D12S,0.246
F8I,0.464
P10Q,0.838
P10Y,0.88
S2A,0.684
N6P,0.00104
N6Y,0.00801
F8L,0.00731
S2C,0.369
S2Y,-0.153
A3W,0.541
D12L,0.654
A3S,0.426
V11F,0.908
D12C,0.703
R5L,0.521
L7V,0.295
P1Y,0.982

# Study 3 — method: DHFR PCA, deep sequencing; sample: yeast; together with: (+)-ABA 0.11 µM; reference: wild-type fitted maximum; direction: higher = stronger binding
# Target: ABI1, truncated, D143A, DHFR fusion (Arabidopsis thaliana)
# Notes: methotrexate growth selection, single substitutions
# Starting sequence: PYL1, truncated, DHFR fusion (Arabidopsis thaliana); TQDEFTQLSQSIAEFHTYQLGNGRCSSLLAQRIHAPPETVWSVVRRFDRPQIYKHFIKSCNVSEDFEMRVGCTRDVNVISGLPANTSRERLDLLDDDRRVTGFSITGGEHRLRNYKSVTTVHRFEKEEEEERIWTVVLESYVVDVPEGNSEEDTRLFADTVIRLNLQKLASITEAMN
Change,relative binding score [%]
I33F,2.75
G102T,-6.84
K116C,-3.65
T73K,7.64
S87C,34.9
E152A,22.3
K168M,8.7
R32Q,20.7
H16I,-2.1
S87T,34.7
C25F,8.02

# Study 4 — method: RNA Bind-n-Seq; form: RNA; sample: in vitro; tested at: 365 nM; reference: no-protein control; direction: higher = stronger binding
# Target: RNA binding protein fox-1 homolog 2, RRM domain, GST-SBP tag (RBFOX2, Homo sapiens, UniProt O43251-10, residues 100-194)
# Notes: natural RNA segment, single round, ends assumed
# Shared flanks, not repeated: GGGAGUUCUACAGUCCGACGAUC … UGGAAUUCUCGGGUGCCAA
# Construct (chain): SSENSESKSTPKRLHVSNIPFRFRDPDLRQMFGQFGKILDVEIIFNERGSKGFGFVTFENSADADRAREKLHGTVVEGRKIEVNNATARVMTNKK
Sequence,RBNS enrichment (R)
CAGGUGACAUUUGUUGACACCAUUCUCAGAGGUGUUGAAGAUUUAUCAUCUUGAAUCCUCCACAAAUACAGAUACAGUCCCAAGGGAGGUAGUCGUAGAAAUGGAAGACG,0.266
CAGCUGCUGCUGCUGUCGUCUGCCCGCCAUUCAGCUAACCGUUCUGUUGAGGUCCUGCCUUGUGCUUUCCUAGUGGAAGCCGUCCUUUGCCCCCGUUGAUGACUUGAGCC,0.389
GGCUCCCAGUCUCUCCUCUGUGAUUUUCCAGUUGCCCGGGAUCUCAGAAUAUGCUCAUCCACUCCUUCAUCAUCCCACUAUCCGAGUCCUACUUCGUUCCCCCUUUGUAA,1.63
UUCUUAGUUUUCUUAACCAUGCUUUAUGUCUUGUCCAGGUAUGUCAGUCCAGUUUCCAUGACGUACCCCCUUCAGAAGUUUCUGACAUUGGUUUGAGGUUUUCUGACACU,1.12
GCACCCGUGCUCACUGUUGUUGGACGGGCUGGUCCACAGCCUCAGACCCACGCUCUGCCGAGAUACUGGACGGGAGGAAGGAUUUUUCCUAGACUGCGGAUUGGCGUGAC,0.29
AGCUUUGGAUUGUGCAUUCCUAGGCACAAAAUUACCUCAUUCUUCCUAACAAGCAAUCUGGGACCUGAUUUUCCACCUUUUUUCUCUUUUCUUCCCUUCCUUUGUUUUCA,1.09
AGUCUGCAUGUGCGUUGAUUCUGUAGAGCUGUUAGUGGCUUAGUUUUUAAACUCCUAUUGGGGAGUAGGUAUUAAUAACUUAUUCCUGUAAGUUGGUUUUCUUAUUUGUU,39.9
GAGUAAGCUCUGUGCGAGAGAUCUGUGAAUAACCAGAUAACCCCAGCUGCCGUUAACCUUUUCACCAGGUGCCACAGUAAUAUUUCUGGUUUUUAGCCCUUUCUCUGCAC,0.301

# For quick reference, copied from above (study 2):
Change,normalised enrichment score
S2A,0.684
R5L,0.521
L7V,0.295
D12C,0.703
P10Q,0.838
N6Y,0.00801
